Measured values collected from several papers.
A part holds a random share of what one study measured. Changes are numbered by the printed parent chain.
Sequence of UniProt P42336 (whole entry, unmodified, looked up): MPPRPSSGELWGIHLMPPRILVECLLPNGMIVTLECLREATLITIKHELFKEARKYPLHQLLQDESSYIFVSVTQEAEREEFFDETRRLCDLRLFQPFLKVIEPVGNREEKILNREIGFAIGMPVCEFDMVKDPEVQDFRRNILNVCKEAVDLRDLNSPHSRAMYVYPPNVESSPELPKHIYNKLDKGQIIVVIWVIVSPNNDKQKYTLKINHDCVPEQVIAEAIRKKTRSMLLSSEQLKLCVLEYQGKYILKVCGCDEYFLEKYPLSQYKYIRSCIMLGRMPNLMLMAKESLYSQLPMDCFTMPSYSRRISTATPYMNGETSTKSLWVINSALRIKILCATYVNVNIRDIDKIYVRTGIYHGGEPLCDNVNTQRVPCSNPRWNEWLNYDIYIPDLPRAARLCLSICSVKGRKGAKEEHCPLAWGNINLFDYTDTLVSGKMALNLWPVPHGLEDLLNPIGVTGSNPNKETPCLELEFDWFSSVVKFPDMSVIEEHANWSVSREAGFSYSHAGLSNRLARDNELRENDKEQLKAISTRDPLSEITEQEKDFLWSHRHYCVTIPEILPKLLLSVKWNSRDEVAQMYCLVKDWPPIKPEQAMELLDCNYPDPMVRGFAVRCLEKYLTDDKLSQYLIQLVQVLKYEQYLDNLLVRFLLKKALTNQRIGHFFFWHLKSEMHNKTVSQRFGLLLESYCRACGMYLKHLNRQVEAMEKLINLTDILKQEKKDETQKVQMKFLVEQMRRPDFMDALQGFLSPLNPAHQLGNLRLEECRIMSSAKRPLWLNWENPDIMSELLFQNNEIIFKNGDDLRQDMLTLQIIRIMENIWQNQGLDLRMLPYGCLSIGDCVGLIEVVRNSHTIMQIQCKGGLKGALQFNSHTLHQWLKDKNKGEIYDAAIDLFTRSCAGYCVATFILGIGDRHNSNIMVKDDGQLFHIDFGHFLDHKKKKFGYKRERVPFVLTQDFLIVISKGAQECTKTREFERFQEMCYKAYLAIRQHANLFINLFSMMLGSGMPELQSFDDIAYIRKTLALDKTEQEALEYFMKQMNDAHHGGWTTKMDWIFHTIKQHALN

Series 1
Target: Ras GTPase-activating protein-binding protein 1, C-terminal RGG region (G3BP1, Homo sapiens, UniProt Q13283)
Sequence of UniProt Q13283 (whole entry, looked up): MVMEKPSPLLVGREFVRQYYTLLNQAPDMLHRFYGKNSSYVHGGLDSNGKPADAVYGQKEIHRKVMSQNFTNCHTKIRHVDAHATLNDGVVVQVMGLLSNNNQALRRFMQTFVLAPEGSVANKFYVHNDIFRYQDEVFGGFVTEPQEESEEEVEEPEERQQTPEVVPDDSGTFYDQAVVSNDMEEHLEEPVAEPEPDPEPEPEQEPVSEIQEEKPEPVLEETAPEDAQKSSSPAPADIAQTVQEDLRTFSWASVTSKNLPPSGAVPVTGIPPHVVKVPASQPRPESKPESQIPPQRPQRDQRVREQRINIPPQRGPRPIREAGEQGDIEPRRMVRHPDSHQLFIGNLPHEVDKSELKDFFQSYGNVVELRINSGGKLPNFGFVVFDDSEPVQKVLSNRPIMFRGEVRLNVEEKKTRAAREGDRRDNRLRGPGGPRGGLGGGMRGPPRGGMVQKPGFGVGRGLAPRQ
Technique: RNA Bind-n-Seq
Molecule type: RNA
Matrix: in vitro
Concentration: 1 µM
Setting: whole 134-nt RNA, ends assumed
With: 150 mM KCl
Relative to: input library
Reading: higher = stronger binding
Endpoint: log2 enrichment
Shared flanks, not repeated: GGGAGUUCUACAGUCCGACGAUC … UGGAAUUCUCGGGUGUCAAGG
UGGCCCUGGUGGCAUGCGGGGAGGAAGAGGUGGCCUCAUGGAUCGUGGUGGUCCCGGUGGAAUGCUCAGAGGUGGCCGUGGUGGAGACAG: 1.89
UGACCUGCACGGACAUCAACACCCUGACAAGGCAGAAGGAACUUCUCCUGCAGAAGCUGAGCACAUUUGAGGAGACCAACCGCACCCUCC: -0.27
AAGUCCUGUGCUACACAUCGUAUGUACCGAAUCGGGAAAGGGUGGGUUUUUUUGGGAAAGUAUUAUGUUACGCCGUUCGGAUCUGCACUU: 1.04
AAGUCCUGUGCUACACAUCGUAUGUACCGAAUCGGGGAAAAGGGAAAAGGAAAAGGAAAGUAUUAUGUUACGCCGUUCGGAUCUGCACUU: -1.78
UGACUUUAGAGGAGGAUCUGAUGGAUAUGGCAGUGGACGUGGAUUUGGGGAUGGCUAUAAUGGGUAUGGAGGAGGACCUGGAGGUGGCAA: -1.33
CUGUGCUACACAUCGUAUGUACCGAAUCGGGGUUUUUUUGGGUUUUUUUGGGUUUUUUUGGAAAGUAUUAUGUUACGCCGUUCGGAUCUG: -1.17
CUCAAGUCCUGUGCUACACAUCGUAUGUACCGAAUCGGGUGGGGUGGGGUGGGGAAAGUAUUAUGUUACGCCGUUCGGAUCUGCACUUCC: 2.46
ACCAUGCAGGUAGGCAUCUUUGGGAAGUGGGGCAAGGGGGGGAUAGGGAGGGGGGUAACACUUUGGGAACAGGUGGUCCCAGGUCGUUUC: -1.42

Series 2
Target: CCND1, cyclin fold, Cln2 fusion (human)
Technique: yeast growth competition, sequencing
Matrix: yeast
Setting: weak parent motif
Relative to: not given
Reading: higher = stronger binding
Endpoint: normalised enrichment score
Starting sequence: WEE1 docking peptide (human); HKTFRKLRLFDTP; partner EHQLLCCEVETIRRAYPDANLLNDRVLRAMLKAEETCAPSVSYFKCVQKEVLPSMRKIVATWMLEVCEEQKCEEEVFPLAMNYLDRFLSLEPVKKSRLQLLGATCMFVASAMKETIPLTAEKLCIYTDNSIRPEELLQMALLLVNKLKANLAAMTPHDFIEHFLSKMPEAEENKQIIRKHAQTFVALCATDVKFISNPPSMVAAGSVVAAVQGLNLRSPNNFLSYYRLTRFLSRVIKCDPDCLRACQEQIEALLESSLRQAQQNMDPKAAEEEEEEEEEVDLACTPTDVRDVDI
HKTFRKLRLFDTQ [P13Q]: -0.403
HDTFRKLRLFDTP [K2D]: 0.303
HKTHRKLRLFDTP [F4H]: 0.27
QKTFRKLRLFDTP [H1Q]: -0.19
HKIFRKLRLFDTP [T3I]: 0.628
HKTFRKLRLFPTP [D11P]: 0.504
IKTFRKLRLFDTP [H1I]: 1.21
HGTFRKLRLFDTP [K2G]: 0.402

Series 3
Target: TAR DNA-binding protein 43, full length, His tag (TARDBP, Homo sapiens, UniProt Q13148, residues 1-414)
Technique: RNA Bind-n-Seq
Molecule type: RNA
Matrix: in vitro
Concentration: 20 nM
Setting: 6-mer, flanks averaged, single round
With: 150 mM KCl
Relative to: input library
Reading: higher = stronger binding
Endpoint: 6-mer enrichment (R)
GCAUAU: 0.676
ACCGAG: 0.927
AACUAG: 0.699
AGAUAU: 0.624
AUCAAA: 0.586
UGAGGC: 1.44
CGCGGU: 1.37
ACGAGU: 0.877

Other studies, line by line
CCS(=O)(=O)c1cc2cc(C[C@@](O)(CC(C)(C)c3ccc(F)cc3C(N)=O)C(F)(F)F)[nH]c2cn1  remaining binding (Phosphatidylinositol 4,5-bisphosphate 3-kinase catalytic subunit alpha isoform (PIK3CA, Homo sapiens, UniProt P42336, E545K); cell-free assay, competition with immobilised ligand; 1 µM): 79%

A few entries again (series 2):
HKTFRKLRLFPTP [D11P]: 0.504
